Measured values from different studies.
Protocols differ between the studies behind these lines. ± gives the spread as reported.
Cell line: K562

`COc1cc(C2Oc3ccc(C=C4Oc5cc(O)ccc5C4=O)cc3OC2CO)cc(OC)c1O` (stereo not shown) has a selectivity ratio of 3.32 (MTT; 72 h; reference: IC50 MRC5 over IC50 K562).
`CC(C)CCCC(C)C1CCC2C3CC=C4CC(OC(=O)CCC(=O)NCCCCCCNC(=O)O[C@H]5[C@@H](O)[C@H](n6cnc7c(=O)[nH]c(N)nc76)O[C@@H]5COP(=O)(O)OP(=O)(O)OP(=O)([S-])OC[C@H]5O[C@@H](n6c[n+](C)c7c(O)nc(N)nc76)[C@H](O)[C@@H]5O)CCC4(C)C3CCC12C` (mixture of isomers) has an apoptotic cells of 30.5 ± 6.5% (annexin V/PI flow cytometry; 5 µM, 20 h).
The growth of `CC(=O)OC[C@H]1O[C@@H](Sc2sc(C(=O)c3ccc(Br)cc3)c(N)c2-c2nc3ccccc3s2)[C@H](OC(C)=O)[C@@H](OC(C)=O)[C@@H]1OC(C)=O` is reported as 66.4% (SRB; 10 µM, 48 h).
With `O=C(/C=C/c1ccc(O)cc1)c1ccc(O)cc1O` the IC50 was 44 µM (cell viability).
For `CCC(=C(c1ccc(Cl)cc1)c1ccc(OCCCN(C)C)cc1)c1ccc(OC)cc1`, the GI50 was 1.06 µM (cell growth or viability).
The inhibition of `COc1cc2c(c(OC)c1OC)CC(Cc1ccc3c(c1)OCCO3)C2` (stereo not shown) is reported as 6.73% (cell growth or viability, CCK-8; 1 µM, 72 h).
With `O=C(/C=C/c1ccccc1)c1ccccc1O` the IC50 was 28 µM (cell viability).
`COc1ccc(CN2C(=O)C(=O)c3cc(NC(C)=O)ccc32)cc1`: “Bcl-2 protein level” “decreased” (western blot; 1 to 10 µM, 24 h).
The IC50 of `O=C(/C=C/c1ccc(O)cc1)c1ccccc1` is reported as 24 µM (NF-κB activity, inhibitor, luciferase; TNF-stimulated).
With `COc1ccc(C2=Nn3c(NN=C4C(=O)N(Cc5ccccc5)c5ccc(Cl)cc54)nnc3SC2)cc1` the inhibition was 53% (cell growth or viability, SRB; 10 µM).
For `COc1cccc(/C=C/C(=O)c2ccccc2O)c1OC`, the IC50 was 12 µM (cell viability).
`C(=C/c1ccccc1)/c1ccccc1` — result for “lowest effective concentration”: 50 µM (apoptosis, measured: caspase-3 activity; 24 h, lowest dose with significant induction; reference: vehicle).
`COc1cc(O)c(C(=O)/C=C/c2ccc(O)cc2)c(OC)c1` has an IC50 of 13 µM (cell viability).
For `COc1cc(/C=C/C(=O)/C=C(O)/C=C/c2ccc(OCC(=O)N3CCOCCOCCOCCOCCOCC3)c(OC)c2)ccc1OCC(=O)N1CCOCCOCCOCCOCCOCC1`, the inhibition was 34.1% (cell growth or viability, SRB; 5 µM).
`O=C1Nc2ccccc2/C1=N\Nc1nnc2n1N=C(c1ccc(Cl)cc1)CS2` gave an inhibition of 14% (cell growth or viability, SRB; 10 µM).
`CC/C=C\C/C=C\C/C=C\C/C=C\C/C=C\C/C=C\CCC(=O)Nc1ccn(C2OC(CO)C(O)C2(F)F)c(=O)n1` (stereo not shown) gave a TGI of 46.9 µM (NCI60 screen).
For `COc1ccc(CCC(=O)c2c(O)cc(OC)cc2O)cc1`, the IC50 was 11 µM (NF-κB activity, inhibitor, luciferase; TNF-stimulated).
With `CC(=O)OC[C@H]1O[C@@H](Sc2sc(C(=O)c3ccc(C)cc3)c(N)c2-c2nc3ccccc3s2)[C@H](OC(C)=O)[C@@H](OC(C)=O)[C@@H]1OC(C)=O` the growth was 68.5% (SRB; 10 µM, 48 h).
For `CC(=C(c1ccc(O)cc1)c1ccc(Cl)cc1)c1ccc(Cl)cc1`, the GI50 was 0.38 µM (cell growth or viability).

For quick reference, copied from above:
`CC/C=C\C/C=C\C/C=C\C/C=C\C/C=C\C/C=C\CCC(=O)Nc1ccn(C2OC(CO)C(O)C2(F)F)c(=O)n1` (stereo not shown) gave a TGI of 46.9 µM (NCI60 screen).
`COc1ccc(CN2C(=O)C(=O)c3cc(NC(C)=O)ccc32)cc1`: “Bcl-2 protein level” “decreased” (western blot; 1 to 10 µM, 24 h).
